Measurements of several laboratories.
Several values in a cell are separate wells, animals, samples, runs or records. Numbers after ± are the reported error. Converted amounts (≈) assume the structure as drawn.

Structure (SMILES)	organism	assay	system	setting	scale	quantity	value
C=C[C@]1(C)C[C@@H](OC(=O)CSc2ccc(NC(=O)c3ccco3)cc2)[C@]2(C)[C@H](C)CC[C@]3(CCC(=O)[C@H]32)[C@@H](C)[C@@H]1O	Mycoplasma gallisepticum		infected chickens, lung	intramuscular, 60 mg/kg daily x3, 72 h	baseline: 0 h	lung mycoplasma load reduction	1.75 log10 CFU/mL and 1.56 log10 CFU/mL and 3.01 log10 CFU/mL and 2.92 log10 CFU/mL and 2.48 log10 CFU/mL and 2.22 log10 CFU/mL and 2.23 log10 CFU/mL and 4.03 log10 CFU/mL
CC1(C)NC(=O)N(c2ccc(F)c(C(C)(F)F)c2)C1=O	Schistosoma mansoni		adult, infected mice	oral, single dose		ED50	18 mg/kg
CC(=O)OC[C@H]1O[C@@H](Sc2sc(C(=O)c3ccc(Br)cc3)c(N)c2-c2nc3ccccc3s2)[C@H](OC(C)=O)[C@@H](OC(C)=O)[C@H]1OC(C)=O	hepatitis A virus	plaque reduction	HM 175	non-toxic dose NG, mean over three titres		viral reduction	20%
FC(F)(F)c1cccc(CNc2nc(NC3CCN(Cc4ccccc4)CC3)c3nc[nH]c3n2)c1	Cryptococcus neoformans	RNA-seq, refers to: KCS1 (CNAG_02897) mRNA		48 µg/mL, 3 h	baseline: untreated wild type	log2 fold change	0.077
CCCCCCCCCC(=O)N[C@@H](Cc1c[nH]c2ccccc12)C(=O)N[C@H](CC(N)=O)C(=O)N[C@@H](CC(=O)O)C(=O)N[C@@H]1C(=O)NCC(=O)N[C@@H](CCCNC(=O)OC2/C=C/CCCCC2)C(=O)N[C@@H](CC(=O)O)C(=O)N[C@H](C)C(=O)N[C@@H](CC(=O)O)C(=O)NCC(=O)N[C@H](CO)C(=O)N[C@@H]([C@H](C)CC(=O)O)C(=O)N[C@@H](CC(=O)c2ccccc2N)C(=O)O[C@@H]1C (stereo partly drawn)	Staphylococcus aureus	planktonic bacterial growth, isothermal microcalorimetry	MRSA	2.5 µg/mL, 24 h, 37 °C, together with: TAG hydrogel		peak heat flow time	0 h
Cc1ccc(C(=O)c2sc(S)c(-c3nc4ccccc4s3)c2N)cc1	hepatitis A virus	plaque reduction	HM 175	non-toxic dose NG, mean over three titres		viral reduction	20%
CCCOC(=O)N1c2cc(CNC)ccc2[C@H](NC(=O)C(=O)Nc2ccc(Cl)c(F)c2)[C@H]1CNC(=N)N	Human immunodeficiency virus 1	viral infection, pseudovirus neutralization	TZM-bl, 191084 B7-19	clade A transmitted/founder		IC80	6.62 µM
COC1C=COC2(C)Oc3c(C)c(O)c4c(c3C2=O)C2=NC3(CCN(CC(C)C)CC3)NC2=C(NC(=O)C(C)=CC=CC(C)C(O)C(C)C(O)C(C)C(OC(=O)Nc2cccnn2)C1C)C4=O (stereo not drawn)	Mycobacteroides abscessus	bacterial growth	subsp. abscessus ATCC 19977			IC50	0.023 µM
Cc1[nH]c2ccccc2c1CC(=O)N[C@@H](Cc1ccccc1)C(=O)N(C)c1ccccc1	HIV-1	viral replication	NL4-3 with subtype C gag/pol			EC50	0.43 ± 0.08 µM
CCC1(CC)CC(=O)N(C2c3cc(C(=O)NC4c5ccccc5CC4O)ccc3OC2(C)COC)C(=N)N1 (stereo not drawn)	Plasmodium falciparum	parasite growth		72 h, blood stage		EC50	0.0004 µM
Cc1cc(Cl)cc(S(C)=NC#N)c1NC(=O)c1cc(Br)nn1-c1ncccc1Cl (stereo not drawn)	Spodoptera litura		Brassica oleracea field plot	50 ppm, 72 h, 10% wettable powder		larval viability	22.9% and 32% and 14.3%
CCCCNC(CCCC)CSS(=O)(=O)O (stereo not drawn)	Schistosoma mansoni		infected mice	100 mg/kg x4, dosed from day 11, perfusion day 25		mean worms recovered	65 worms per mouse
Cc1ccc(N(C)C(=O)[C@H](Cc2ccccc2)NC(=O)Cc2c[nH]c3ccc(O)cc23)cc1	HIV-1	infectivity of progeny virus	HEK293FT, NL4-3			EC50	0.38 ± 0.09 µM
O=C(NCC(O)(Cn1cncn1)c1ccc(F)cc1F)[c-]1cccc1.[Cl-].[Co+3].c1cc[cH-]c1 (racemic)	Brugia pahangi	motility, Worminator	adult female	50 µM, 1 d		inhibition	0%
Cc1c(CN(C)C(=O)/C=C/c2cnc3c(c2)CC(N)C(=O)N3)oc2ccccc12 (stereo not drawn)	Escherichia coli	broth microdilution	AR-0543			MIC	8 mg/L (≈ 20.5 µM)
CC(=O)O[C@@H]1[C@@H](OC(C)=O)[C@H](Sc2sc(C(=O)c3ccc(C)cc3)c(N)c2-c2nc3ccccc3s2)OC[C@H]1OC(C)=O	hepatitis A virus	plaque reduction	HM 175	non-toxic concentration		viral titre reduction	20%
CC(C)(C)NCC(SS(=O)(=O)O)c1ccccc1 (stereo not drawn)	Schistosoma mansoni		mice	400 mg/kg single dose, dosed day 7, perfused 52		male worms recovered	13 worms per mouse and 26 worms per mouse and 23 worms per mouse and 14 worms per mouse and 33 worms per mouse
CC(=O)OC[C@H]1O[C@@H](Sc2sc(C(=O)c3ccc(Cl)cc3)c(N)c2-c2nc3ccccc3s2)[C@H](OC(C)=O)[C@@H](OC(C)=O)[C@@H]1OC(C)=O	hepatitis A virus	plaque reduction	HM 175	non-toxic dose NG, mean over three titres		viral reduction	10%

Structure (SMILES)	organism	assay	system	setting	scale	quantity	value
OC(Cn1cncn1)(Cn1cc(-[c-]2cccc2)nn1)c1ccc(F)cc1F.[Cl-].[Co+3].c1cc[cH-]c1 (racemic)	Brugia pahangi	motility, Worminator	adult female	50 µM, 2 d		inhibition	6%
CC(=O)O[C@@H]1[C@@H](OC(C)=O)[C@H](Sc2sc(C(=O)c3ccc(Br)cc3)c(N)c2-c2nc3ccccc3s2)OC[C@@H]1OC(C)=O	hepatitis A virus	plaque reduction	HM 175	non-toxic dose NG, mean over three titres		viral reduction	20%
CC(C)NCC(SS(=O)(=O)O)c1ccccc1 (stereo not drawn)	Schistosoma mansoni		infected mice	100 mg/kg x4, dosed from day 11, perfusion day 25		mean worms recovered	31 worms per mouse
CCn1c(C)c(CC(=O)N[C@@H](Cc2ccccc2)C(=O)N(C)c2cccc(F)c2)c2ccccc21	HIV-1	infectivity of progeny virus	HEK293FT, NL4-3			EC50	0.46 ± 0.2 µM
C[C@@H]1C(=O)O[C@@H](C)/C=C/C=C\[C@@H](C)[C@@H]2C=C[C@@H]3C[C@@]4(C)O[C@H]4[C@@H](C)[C@H]3[C@@H]2C(=O)C(Cl)(Cl)C1=O	Staphylococcus aureus		MSSA clinical isolate	resistant: PEN,CLI,ERY		MIC	0.05 mg/L (≈ 0.101 µM)
COC(=O)C1=CO[C@@H](C)[C@@H]2Cn3ccc4c5ccccc5nc-4c3C[C@H]12	Plasmodium falciparum	growth	3D7	96 h, together with: 200 µM IPP		IC50	0.249 ± 0.102 µM
CC(=O)OC[C@H]1O[C@@H](Sc2sc(C(=O)c3ccc(C)cc3)c(N)c2-c2nc3ccccc3s2)[C@H](OC(C)=O)[C@@H](OC(C)=O)[C@@H]1OC(C)=O	hepatitis A virus	plaque reduction	HM 175	non-toxic concentration		viral titre reduction	10%
OC(CNc1cccc(Cl)c1)CN1c2ccccc2Sc2ccccc21 (stereo not drawn)	HIV-1	cytopathicity, XTT	CEM-SS, RF	6 days		EC50	> 10 µM
Cc1cc(C(=O)Nc2nc3cccc(C)c3n2[C@H]2CCCCN(C(=O)/C=C/CN(C)C)C2)ccn1	Trypanosoma brucei brucei		Lister 427	50 µM, 48 h, kill kinetics		proliferation	1.76% and 2.92% and 2.84% and 0.909% and 0.985% and 3.07%
CC1(C)[C@H](NC(=O)/C(=N\OCc2c(Cl)cccc2Cl)c2nsc(N)n2)C(=O)N1OS(=O)(=O)O	Proteus mirabilis	agar dilution	ATCC 49565, susceptible			MIC	1 mg/L (≈ 1.85 µM)
C=C(NC(=O)c1csc(-c2nc3c(cc2O)-c2nc(cs2)C(=O)NC(C(C)O)C(=O)NC(=C(C)OC)c2nc(cs2)C(=O)NC2c4nc(cs4)C(=O)NC(COC(=O)c4c5c6c(cccc6n4O)COC(=O)C(OC4CC(C)(O)C(N(C)C)C(C)O4)C2OC5)c2nc-3cs2)n1)C(N)=O (stereo not drawn)	Streptococcus pneumoniae		-4, immunocompromised mice, lung	8 mg/kg/day thrice daily, 24 h post-dose		lung bacterial load	4.78 log10 CFU/lung
Nc1c(C(=O)c2ccc(Br)cc2)sc(S)c1-c1nc2ccccc2s1	hepatitis A virus	plaque reduction	HM 175	non-toxic concentration		viral titre reduction	0%
CN(C(=O)[C@H](Cc1ccccc1)NC(=O)Cc1c[nH]c2ccc(O)cc12)c1ccc(Cl)cc1	HIV-1	viral replication	NL4-3 with subtype C gag/pol			EC50	0.041 ± 0.01 µM
Nc1c(C(=O)c2ccc(Cl)cc2)sc(S)c1-c1nc2ccccc2s1	hepatitis A virus	plaque reduction	HM 175	non-toxic concentration		viral titre reduction	0%
CC1=C(Cn2cc(CN3CCC(=O)CC3)nn2)C(=O)c2ccccc2C1=O	Schistosoma mansoni		adult worms	25 µM, 72 h		killing	50%
CN(Cc1ccc(C2(C(F)(F)F)CCC2)cc1)Cc1cccc2ccccc12	Trichophyton rubrum	microbial growth, disc diffusion	ATCC28188	0.064 µg/mL, 6 days		inhibition zone	41 mm
CC1=C(Cn2cc(CN3CCC(F)(F)CC3)nn2)C(=O)c2ccccc2C1=O	Schistosoma mansoni		adult worms	10 µM, 48 h		killing	40.7%
CC1(C)[C@H](NC(=O)/C(=N\OC2(C(=O)O)CCCCC2)c2csc(N)n2)C(=O)N1OS(=O)(=O)O	Proteus mirabilis	agar dilution	ATCC 49565, susceptible			MIC	0.125 mg/L (≈ 0.247 µM)

A few entries again:
Structure (SMILES)	organism	assay	system	setting	scale	quantity	value
Cc1c(CN(C)C(=O)/C=C/c2cnc3c(c2)CC(N)C(=O)N3)oc2ccccc12 (stereo not drawn)	Escherichia coli	broth microdilution	AR-0543			MIC	8 mg/L (≈ 20.5 µM)
CC(C)NCC(SS(=O)(=O)O)c1ccccc1 (stereo not drawn)	Schistosoma mansoni		infected mice	100 mg/kg x4, dosed from day 11, perfusion day 25		mean worms recovered	31 worms per mouse
CC(=O)OC[C@H]1O[C@@H](Sc2sc(C(=O)c3ccc(Cl)cc3)c(N)c2-c2nc3ccccc3s2)[C@H](OC(C)=O)[C@@H](OC(C)=O)[C@@H]1OC(C)=O	hepatitis A virus	plaque reduction	HM 175	non-toxic dose NG, mean over three titres		viral reduction	10%
